Measurements pooled from the literature.
Each line is one published result; not all experiments were run side by side. ± marks the error that the study gave.

Compound	assay	system	setting	scale	quantity	value
CC(=O)N[C@@H](Cc1ccccc1)C(=O)N[C@H]1CCCNC(=O)[C@H](CCCNC(=N)N)NC(=O)[C@H](Cc2c[nH]c3ccccc23)NC(=O)[C@@H](CC2CCCCC2)NC(=O)[C@@H]2CCCN2C1=O		C57BL/6J mice, brain	oral, 1 mg/kg		elimination half-life	1.58 h
CCCCC1(CCCC)CN(c2ccccc2)c2cc(SC)c(OCC(=O)N[C@@H](C(=O)NCC(=O)O)c3ccccc3)cc2S(=O)(=O)C1		human, plasma	oral, 2.5 mg once daily, day 14, geometric mean		AUC(0-t)	0.249 ng·h/mL
C#Cc1cccc(Nc2ncnc3cc(OCCOC)c(OCCOC)cc23)c1		Sprague-Dawley rat female, serum	oral, 42 mg/kg weekly		time to therapeutic level	≤ 48 h
COc1cccc2c1C(=O)c1c(O)c3c(c(O)c1C2=O)C[C@@](O)(C(=O)CO)C[C@@H]3O[C@H]1C[C@H](N)[C@H](O)[C@H](C)O1		mouse, E0771 tumour-bearing, plasma	intravenous, 92 µmol/kg		Tmax	5 min
CS(=O)(=O)OCCCCOS(C)(=O)=O	cytochrome c release, ELISA	BALB/cByJ female mouse liver mitochondria	30 min	baseline: alamethicin maximal release	EC20	> 400 µM
CC(C)(O)CNc1nc(Nc2ccnc(C(F)(F)F)c2)nc(-c2cccc(C(F)(F)F)n2)n1		human patients	oral, 100 mg once daily, cycle 1 day 1, added: consolidation chemotherapy		mean Cmax	9780 ng/mL
CC(C)[C@H](NC(=O)[C@@H]1CCCN1C(=O)[C@H](CCCNC(=N)N)NC(=O)[C@H](CS)NC(=O)[C@H](Cc1c[nH]c2ccccc12)NC(=O)[C@H](CCCNC(=N)N)NC(=O)[C@@H](Cc1ccccc1)NC(=O)[C@H](Cc1c[nH]cn1)NC(=O)[C@H](CCC(=O)O)NC(=O)[C@H](CS)NC(=O)[C@H](CS)NC(=O)[C@H](CCCCN)NC(=O)[C@@H]1CC(=O)N[C@@H](CCCNC(=N)N)C(=O)N[C@@H]([C@@H](C)O)C(=O)N[C@@H](CC(=O)O)C(=O)N[C@H](Cc2ccc(O)cc2)C(=O)N1)C(N)=O [technetium-99m labelled]		C57 mouse, female, B16/F1 melanoma, blood	intravenous, 2 h, added: NDP-MSH 10 µg co-injected		tissue uptake	0.5 ± 0.2 %ID/g
CNC(=O)c1cc(Oc2ccc(NC(=O)Nc3ccc(Cl)c(C(F)(F)F)c3)cc2)ccn1	LC-MS/MS	nude mouse subcutaneous tumour model, tumour tissue	intratumoral, 2 mg/kg, PDC 4 control		t1/2	23.3 ± 6.68 h
Cc1cccc(C)c1OCC(=O)N[C@@H](Cc1ccccc1)[C@@H](O)C[C@H](Cc1ccccc1)NC(=O)[C@H](C(C)C)N1CCCNC1=O	USP paddle apparatus	Tween in phosphate buffer	concentration not given, 5 min, pH 6.8, 37 °C		amount dissolved	1.56%
CCCC[C@H](NC(C)=O)C(=O)N[C@H]1CCC(=O)NC[C@@H](C(=O)N[C@@H](Cc2c[nH]c3ccccc23)C(N)=O)NC(=O)[C@H](CCCNC(=N)N)NC(=O)[C@@H](Cc2ccccc2)NC(=O)[C@H](Cc2c[nH]cn2)NC1=O		beagle dog, male, plasma	subcutaneous, 8.0 mg/kg daily, day 28		Cmax	275 ng/mL
O=C(O)c1ccccc1Nc1cccc(C(F)(F)F)c1	cytochrome c release, ELISA	BALB/cByJ female mouse liver mitochondria	30 min	baseline: alamethicin maximal release	EC20	> 200 µM
CCN1C(=O)CNc2ncc(-c3ccc(-c4nc[nH]n4)nc3C)nc21		human, plasma	oral, 25 mg once daily, multiple doses		AUC(0-24h)	1570 ng·h/mL
COc1ccc(-c2coc3cc(O)ccc3c2=O)cc1O		extracted rat plasma, autosampler	37.5 ng/mL, 24 h, 4 °C, post-preparative stability, middle QC		accuracy	104 % nominal
CCOc1ccc2c(c1)C(C)=CC(C)(C)N2	LC-MS/MS	laying hens, skin/fat	oral, 50 mg/kg feed, 56 days		residue concentration	298 ± 73.8 ng/g
O=c1ccc2ccccc2o1	cytochrome c release, ELISA	BALB/cByJ female mouse liver mitochondria	30 min	baseline: alamethicin maximal release	EC20	> 100 µM
CC[C@H](C)[C@H](NC(=O)[C@H](Cc1ccccc1)NC(=O)[C@H](CCC(=O)O)NC(=O)[C@H](CCCCNC(=O)COCCOCCNC(=O)COCCOCCNC(=O)CC[C@H](NC(=O)CCCCCCCCCCCCCCCCC(=O)O)C(=O)O)NC(=O)[C@H](C)NC(=O)[C@H](C)NC(=O)[C@H](CCC(N)=O)NC(=O)CNC(=O)[C@H](CCC(=O)O)NC(=O)[C@H](CC(C)C)NC(=O)[C@H](Cc1ccc(O)cc1)NC(=O)[C@H](CO)NC(=O)[C@H](CO)NC(=O)[C@@H](NC(=O)[C@H](CC(=O)O)NC(=O)[C@H](CO)NC(=O)[C@@H](NC(=O)[C@H](Cc1ccccc1)NC(=O)[C@@H](NC(=O)CNC(=O)[C@H](CCC(=O)O)NC(=O)C(C)(C)NC(=O)[C@@H](N)Cc1cnc[nH]1)[C@@H](C)O)[C@@H](C)O)C(C)C)C(=O)N[C@@H](C)C(=O)N[C@@H](Cc1c[nH]c2ccccc12)C(=O)N[C@@H](CC(C)C)C(=O)N[C@H](C(=O)N[C@@H](CCCNC(=N)N)C(=O)NCC(=O)N[C@@H](CCCNC(=N)N)C(=O)NCC(=O)O)C(C)C		Japanese subjects	subcutaneous once weekly, 0.5 mg, geometric mean	baseline: steady state over single dose	dose-corrected accumulation ratio	1.99
O=C1CCc2ccc(OCCCCN3CCN(c4cccc(Cl)c4Cl)CC3)cc2N1		healthy Japanese men, CYP2D6 EM, plasma	oral, 3 mg aripiprazole single, added: paroxetine 20 mg/day		AUC	1370 ± 211 ng·h/mL
CS(=O)(=O)n1cc2c(n1)CN([C@H]1CO[C@H](c3cc(F)ccc3F)[C@@H](N)C1)C2		healthy Japanese men, plasma	oral, 25 mg once weekly, day 1		Ctrough	14.8 nM
COc1cc(/C=C/C(=O)CC(=O)/C=C/c2ccc(O)c(OC)c2)ccc1O	cytochrome c release, ELISA	BALB/cByJ female mouse liver mitochondria	30 min	baseline: alamethicin maximal release	EC20	> 200 µM

Compound	assay	system	setting	scale	quantity	value
Cn1c(-c2ccc(C(N)=O)cc2F)nnc1C(C)(C)Oc1c(F)cc(Cl)cc1F		young Japanese adults, plasma	oral, 50 mg single dose, day 1, high-dose multiple-dose study		half-life median	10.1 h
CCn1cc(-c2cc(Cn3ccnc3)cc3c2CCN([C@H](c2cc(OC)ccn2)C2CC2)C3=O)c(C(F)(F)F)n1		male CD-1 mouse, plasma	intravenous, 3 mg/kg		clearance	20 mL/min/kg
CC(=O)CCc1ccc(O)cc1		female C57BL/6J mice, low-fat diet, brain	oral, 200 mg/kg		AUC(0-12 h)	20.2 ± 6.72 nmol·min/g
CC(C)C[C@H](NC(=O)[C@H](Cc1ccc(O)cc1)NC(=O)[C@H](CC(N)=O)NC(=O)[C@H](CO)NC(=O)CNC(=O)[C@H](Cc1ccc(O)cc1)NC(=O)[C@H](CC(=O)O)NC(=O)CNC(=O)[C@H](Cc1ccc(O)cc1)NC(=O)[C@H](Cc1ccccc1)NC(=O)[C@@H]1CCCN1C(=O)[C@H](Cc1ccccc1)NC(=O)[C@H](CCC(=O)O)NC(=O)[C@H](CCCNC(=N)N)NC(=O)[C@H](Cc1c[nH]cn1)NC(=O)[C@H](CO)NC(=O)[C@H](Cc1c[nH]cn1)NC(=O)[C@H](Cc1c[nH]cn1)NC(=O)[C@H](CCCCN)NC(=O)[C@H](CCC(=O)O)NC(=O)[C@H](Cc1c[nH]cn1)NC(=O)[C@H](Cc1ccccc1)NC(=O)[C@H](CCCCN)NC(=O)[C@H](CCCNC(=N)N)NC(=O)[C@H](CCCNC(=N)N)NC(=O)[C@H](Cc1ccc(O)cc1)NC(=O)CNC(=O)[C@H](Cc1c[nH]cn1)NC(=O)[C@H](Cc1c[nH]cn1)NC(=O)[C@H](CCCNC(=N)N)NC(=O)[C@H](CCCCN)NC(=O)[C@H](CCC(=O)O)NC(=O)[C@H](Cc1c[nH]cn1)NC(=O)[C@H](CO)NC(=O)[C@@H](N)CC(=O)O)C(=O)N[C@@H](Cc1ccc(O)cc1)C(=O)N[C@@H](CC(=O)O)C(=O)N[C@@H](CC(N)=O)C(=O)O	PAGE band density	whole saliva supernatant G2 and G3, diluted 1:10	100 µg/mL, 48 h, 37 °C		degradation	~43.3%
O=c1c(-c2ccc(O)cc2)coc2cc(O)cc(O)c12	cytochrome c release, ELISA	BALB/cByJ female mouse liver mitochondria	30 min	baseline: alamethicin maximal release	EC20	> 200 µM
O=C(Cc1cccc(OC(F)(F)F)c1)Nc1ccc(CCCCc2nnc(NC(=O)Cc3ccccn3)s2)nn1	non-compartmental analysis	human	oral, 600 mg twice daily, fed, steady state, cycle 1 day 15		AUC(0-8h)	7610 ng·h/mL
COc1ccc(C(=O)O)cc1OS(=O)(=O)O		human, fasted baseline, cerebrospinal fluid			mean concentration	18.8 nM
Cc1nc2cccc(N)c2c(=O)n1C1CCC(=O)NC1=O (stereo not shown)		healthy adults	oral, 3 mg, geometric mean, added: fluvoxamine 50 mg twice daily		CL/F	2.74 L/h
C[C@@H](Oc1ccc(S(C)(=O)=O)cc1C(=O)N1C[C@@H]2C[C@]2(c2cc(C(F)(F)F)on2)C1)C(F)(F)F		healthy men, plasma	oral, 25 mg, single dose, geometric mean, added: itraconazole multiple doses		AUC(0-167 h)	26.8 µM·h
CCCCNC(=O)CCC(C(=O)[O-])N1CCN(CC(=O)[O-])CCN(CC(=O)[O-])CCN(CC(=O)[O-])CC1.[67Ga+3] (stereo not shown)	RP-TLC	murine plasma	3 h, 37 °C, 5% CO2		intact radiolabelled complex	96.1 ± 0.4%
Cc1cccc(-c2nc(Nc3ccc4c(c3)OCO4)c3ccccc3n2)n1		mouse, CD1, plasma	oral, 10 mg/kg		t1/2	> 3 h
CS(=O)(=O)n1cc2c(n1)CN([C@H]1CO[C@H](c3cc(F)ccc3F)[C@@H](N)C1)C2		healthy male human, plasma	oral, 200 mg, fasted, geometric mean		AUC(0-24h)	69 µM·h
C[C@@H]1O[C@@H](OC[C@H]2O[C@@H](Oc3c(-c4ccc(OCCO)c(OCCO)c4)oc4cc(OCCO)cc(O)c4c3=O)[C@H](O)[C@@H](O)[C@@H]2O)[C@H](O)[C@H](O)[C@H]1O	cytochrome c release, ELISA	BALB/cByJ female mouse liver mitochondria	30 min	baseline: alamethicin maximal release	EC20	> 400 µM
CNCc1ccc(-c2[nH]c3cc(F)cc4c3c2CCNC4=O)cc1		human, plasma	oral, 300 mg, fed, high-fat meal, median		AUC(0-24 h)	6000 ng·h/mL
CNS(=O)(=O)Cc1ccc2[nH]cc(CCN(C)C)c2c1	mitochondrial swelling	BALB/cByJ female mouse liver mitochondria	30 min, added: succinate + rotenone	baseline: CaCl2 maximal swelling	EC20	> 400 µM
COc1ccc(OCC2=C(C)C(=O)c3ccccc3C2=O)cc1C(F)(F)F	cyclic voltammetry	DMSO	first wave, vs Ag/AgCl		cathodic peak potential	-0.62 V
O=C(O)c1cc(-c2ccc(F)cc2F)ccc1O	cytochrome c release, ELISA	BALB/cByJ female mouse liver mitochondria	30 min	baseline: alamethicin maximal release	EC20	> 200 µM
O=C(O)CNC(=O)c1ccco1		human hemodialysis patients, plasma ultrafiltrate	pre-treatment	baseline: hemodialysis over normal subjects	free concentration ratio	82
